Measured values gathered from unrelated publications.
A part holds a random share of what one study measured.
Chain of UniProt Q96PY6 (whole entry, looked up): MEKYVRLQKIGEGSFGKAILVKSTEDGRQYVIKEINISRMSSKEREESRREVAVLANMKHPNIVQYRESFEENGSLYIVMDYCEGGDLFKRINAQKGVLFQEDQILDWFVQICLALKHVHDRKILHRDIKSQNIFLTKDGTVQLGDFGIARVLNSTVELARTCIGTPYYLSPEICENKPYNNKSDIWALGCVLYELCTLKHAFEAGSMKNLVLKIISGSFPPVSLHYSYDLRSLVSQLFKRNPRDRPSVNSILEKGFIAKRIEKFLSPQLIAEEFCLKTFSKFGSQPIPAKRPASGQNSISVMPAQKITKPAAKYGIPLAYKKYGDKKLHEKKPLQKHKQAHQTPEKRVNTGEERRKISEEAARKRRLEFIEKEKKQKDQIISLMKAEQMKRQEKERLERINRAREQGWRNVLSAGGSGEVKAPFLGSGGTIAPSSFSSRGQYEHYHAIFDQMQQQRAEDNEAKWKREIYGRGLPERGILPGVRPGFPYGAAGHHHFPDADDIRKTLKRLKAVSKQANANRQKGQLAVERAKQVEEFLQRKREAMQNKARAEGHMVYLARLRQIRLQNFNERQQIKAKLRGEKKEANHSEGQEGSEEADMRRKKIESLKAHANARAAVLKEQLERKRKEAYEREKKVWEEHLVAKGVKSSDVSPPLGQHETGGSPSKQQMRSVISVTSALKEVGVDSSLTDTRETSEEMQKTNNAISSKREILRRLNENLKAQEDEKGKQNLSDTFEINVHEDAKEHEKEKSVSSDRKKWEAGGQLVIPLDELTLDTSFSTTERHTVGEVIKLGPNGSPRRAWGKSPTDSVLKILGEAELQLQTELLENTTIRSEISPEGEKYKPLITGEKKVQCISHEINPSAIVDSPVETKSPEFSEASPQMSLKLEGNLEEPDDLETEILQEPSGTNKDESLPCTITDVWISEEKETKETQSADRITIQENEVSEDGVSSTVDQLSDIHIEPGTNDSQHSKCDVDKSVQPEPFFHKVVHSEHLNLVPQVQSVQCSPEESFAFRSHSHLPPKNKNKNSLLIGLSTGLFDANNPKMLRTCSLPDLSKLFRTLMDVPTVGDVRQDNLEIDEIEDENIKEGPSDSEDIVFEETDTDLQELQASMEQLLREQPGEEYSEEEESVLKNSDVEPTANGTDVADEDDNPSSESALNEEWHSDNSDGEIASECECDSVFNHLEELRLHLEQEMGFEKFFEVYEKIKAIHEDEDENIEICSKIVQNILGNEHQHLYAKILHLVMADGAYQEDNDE
Chain of UniProt Q9UL54 (whole entry, looked up): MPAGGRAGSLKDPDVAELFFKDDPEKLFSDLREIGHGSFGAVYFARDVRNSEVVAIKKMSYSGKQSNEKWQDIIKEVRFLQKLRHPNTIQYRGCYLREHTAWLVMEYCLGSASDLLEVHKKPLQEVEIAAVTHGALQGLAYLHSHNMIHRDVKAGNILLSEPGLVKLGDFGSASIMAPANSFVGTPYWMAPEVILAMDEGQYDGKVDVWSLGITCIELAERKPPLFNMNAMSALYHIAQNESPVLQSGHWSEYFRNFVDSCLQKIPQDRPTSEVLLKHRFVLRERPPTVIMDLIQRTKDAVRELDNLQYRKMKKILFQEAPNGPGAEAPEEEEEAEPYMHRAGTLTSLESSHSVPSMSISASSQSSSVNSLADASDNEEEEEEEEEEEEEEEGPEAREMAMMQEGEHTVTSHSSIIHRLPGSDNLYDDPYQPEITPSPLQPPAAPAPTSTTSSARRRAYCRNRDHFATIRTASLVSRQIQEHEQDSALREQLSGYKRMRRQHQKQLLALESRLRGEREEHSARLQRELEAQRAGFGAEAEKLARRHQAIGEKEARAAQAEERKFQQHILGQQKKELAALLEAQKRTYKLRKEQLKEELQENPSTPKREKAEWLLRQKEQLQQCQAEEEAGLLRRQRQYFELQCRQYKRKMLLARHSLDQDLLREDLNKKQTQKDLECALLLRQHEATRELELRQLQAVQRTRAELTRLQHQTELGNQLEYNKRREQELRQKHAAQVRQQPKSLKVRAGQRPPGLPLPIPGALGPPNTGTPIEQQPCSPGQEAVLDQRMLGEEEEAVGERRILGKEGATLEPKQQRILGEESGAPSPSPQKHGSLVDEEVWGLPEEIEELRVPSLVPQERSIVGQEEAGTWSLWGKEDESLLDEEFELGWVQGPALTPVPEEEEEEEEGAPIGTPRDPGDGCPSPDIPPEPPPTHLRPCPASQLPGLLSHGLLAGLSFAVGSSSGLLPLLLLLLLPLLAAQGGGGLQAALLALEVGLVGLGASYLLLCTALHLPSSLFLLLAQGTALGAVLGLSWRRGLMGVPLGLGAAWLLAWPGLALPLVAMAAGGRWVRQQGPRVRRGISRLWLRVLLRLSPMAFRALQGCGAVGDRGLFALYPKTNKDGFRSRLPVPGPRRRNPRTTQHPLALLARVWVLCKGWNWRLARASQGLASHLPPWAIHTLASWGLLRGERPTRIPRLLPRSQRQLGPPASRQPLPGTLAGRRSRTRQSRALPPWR
Chain of UniProt P49137 (whole entry, looked up): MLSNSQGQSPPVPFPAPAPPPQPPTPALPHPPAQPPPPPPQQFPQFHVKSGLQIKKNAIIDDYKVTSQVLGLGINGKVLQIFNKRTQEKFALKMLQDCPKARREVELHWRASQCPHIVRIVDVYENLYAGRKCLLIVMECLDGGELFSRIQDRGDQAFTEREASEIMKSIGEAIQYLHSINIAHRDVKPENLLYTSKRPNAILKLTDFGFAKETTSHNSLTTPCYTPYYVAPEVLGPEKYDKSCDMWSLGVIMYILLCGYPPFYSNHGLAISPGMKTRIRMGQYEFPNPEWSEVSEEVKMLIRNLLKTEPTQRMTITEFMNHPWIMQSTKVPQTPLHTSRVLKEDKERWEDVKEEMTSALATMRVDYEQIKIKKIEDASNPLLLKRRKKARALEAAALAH
Chain of UniProt P11362 (whole entry, looked up): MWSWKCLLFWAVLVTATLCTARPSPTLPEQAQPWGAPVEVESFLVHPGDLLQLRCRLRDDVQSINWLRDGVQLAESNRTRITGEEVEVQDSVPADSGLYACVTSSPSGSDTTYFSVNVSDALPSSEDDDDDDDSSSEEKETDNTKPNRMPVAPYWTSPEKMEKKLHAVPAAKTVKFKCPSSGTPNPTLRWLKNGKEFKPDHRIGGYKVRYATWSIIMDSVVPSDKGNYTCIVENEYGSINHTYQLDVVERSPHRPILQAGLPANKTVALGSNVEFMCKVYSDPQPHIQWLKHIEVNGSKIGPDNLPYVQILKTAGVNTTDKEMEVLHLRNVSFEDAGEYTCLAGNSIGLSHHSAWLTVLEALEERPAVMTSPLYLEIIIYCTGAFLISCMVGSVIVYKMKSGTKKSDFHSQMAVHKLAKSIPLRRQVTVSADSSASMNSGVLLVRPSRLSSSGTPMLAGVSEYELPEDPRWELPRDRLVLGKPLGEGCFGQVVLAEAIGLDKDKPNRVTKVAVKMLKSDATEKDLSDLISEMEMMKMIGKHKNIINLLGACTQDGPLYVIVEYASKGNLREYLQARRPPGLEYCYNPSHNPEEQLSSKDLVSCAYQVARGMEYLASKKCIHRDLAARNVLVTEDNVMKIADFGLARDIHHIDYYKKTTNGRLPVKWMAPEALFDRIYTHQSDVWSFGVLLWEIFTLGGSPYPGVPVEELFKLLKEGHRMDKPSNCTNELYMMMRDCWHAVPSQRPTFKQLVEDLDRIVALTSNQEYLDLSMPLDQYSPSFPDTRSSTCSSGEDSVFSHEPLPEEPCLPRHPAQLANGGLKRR
Chain of UniProt Q9UHD2 (whole entry, looked up): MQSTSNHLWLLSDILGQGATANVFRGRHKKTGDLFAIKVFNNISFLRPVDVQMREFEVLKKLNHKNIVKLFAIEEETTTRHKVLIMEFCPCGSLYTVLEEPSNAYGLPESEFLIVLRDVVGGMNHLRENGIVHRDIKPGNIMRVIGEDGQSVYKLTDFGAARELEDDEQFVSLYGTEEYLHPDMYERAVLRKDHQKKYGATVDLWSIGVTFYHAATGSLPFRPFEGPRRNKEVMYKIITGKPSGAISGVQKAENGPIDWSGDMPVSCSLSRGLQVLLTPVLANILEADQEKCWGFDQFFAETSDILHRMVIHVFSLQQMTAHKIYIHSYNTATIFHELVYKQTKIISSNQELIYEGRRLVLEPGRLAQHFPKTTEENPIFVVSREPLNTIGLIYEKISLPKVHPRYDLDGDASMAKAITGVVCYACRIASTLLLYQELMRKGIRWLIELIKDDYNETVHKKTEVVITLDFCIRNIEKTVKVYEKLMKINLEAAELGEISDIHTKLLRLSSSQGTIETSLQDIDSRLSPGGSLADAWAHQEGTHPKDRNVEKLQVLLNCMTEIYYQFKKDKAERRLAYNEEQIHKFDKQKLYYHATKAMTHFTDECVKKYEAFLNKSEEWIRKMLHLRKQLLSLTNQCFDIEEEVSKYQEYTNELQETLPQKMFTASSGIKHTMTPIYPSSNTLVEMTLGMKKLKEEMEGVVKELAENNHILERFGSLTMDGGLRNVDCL
Chain of UniProt P06239 (whole entry, looked up): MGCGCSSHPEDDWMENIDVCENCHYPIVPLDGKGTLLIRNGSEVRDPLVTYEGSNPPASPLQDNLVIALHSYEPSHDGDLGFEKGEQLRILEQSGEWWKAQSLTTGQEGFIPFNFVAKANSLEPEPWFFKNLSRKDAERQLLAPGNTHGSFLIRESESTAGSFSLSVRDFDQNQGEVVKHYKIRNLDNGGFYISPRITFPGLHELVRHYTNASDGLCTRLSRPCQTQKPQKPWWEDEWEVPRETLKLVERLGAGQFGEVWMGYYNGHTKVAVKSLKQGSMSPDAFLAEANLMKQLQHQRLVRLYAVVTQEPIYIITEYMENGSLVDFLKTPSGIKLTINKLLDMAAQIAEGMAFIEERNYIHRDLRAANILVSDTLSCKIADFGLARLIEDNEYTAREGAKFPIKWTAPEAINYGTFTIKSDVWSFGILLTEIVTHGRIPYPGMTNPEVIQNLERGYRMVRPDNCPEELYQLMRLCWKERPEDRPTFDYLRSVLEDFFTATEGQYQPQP

Sample 1
SMILES: COc1ccc(-c2cnc3c(-c4ccsc4)cnn3c2)cc1
Effect on: enzyme activity
Mode: inhibitor
Concentration: 0.5 µM
Baseline: control
target | remaining activity
NEK1 (Homo sapiens, UniProt Q96PY6) | 89.4%
TBK1 (Homo sapiens, UniProt Q9UHD2) | 77.7%
ULK2 (Homo sapiens, UniProt Q8IYT8) | 103%
FGFR1 (Homo sapiens, UniProt P11362) | 80.3%
MST1R (Homo sapiens, UniProt Q04912) | 91.6%
ULK3 (Homo sapiens, UniProt Q6PHR2) | 79.4%
MAPKAPK2 (Homo sapiens, UniProt P49137) | 95.8%
MERTK (Homo sapiens, UniProt Q12866) | 81.2%
FGFR3 (Homo sapiens, UniProt P22607) | 81.5%
TAOK2 (Homo sapiens, UniProt Q9UL54) | 97.4%
WEE1 (Homo sapiens, UniProt P30291) | 102%
MAPK3 (Homo sapiens, UniProt P27361) | 99.5%
LCK (Homo sapiens, UniProt P06239) | 81.6%
MAP3K14 (Homo sapiens, UniProt Q99558) | 106%

Sample 2
Target: Max dimerization protein 1, bHLH-zipper, MAX partner unstated (MXD1, Homo sapiens, UniProt Q05195, residues 56-136)
Technique: protein-binding microarray
Molecule type: double-stranded DNA, one strand shown
Medium: in vitro
Concentration: not given
Setting: k-mer, scored over probes, only values ≥0.25
Direction: higher = stronger binding
Construct (chain): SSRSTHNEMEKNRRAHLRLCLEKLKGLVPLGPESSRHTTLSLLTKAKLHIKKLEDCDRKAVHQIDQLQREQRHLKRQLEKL
Sequence | E-score
CATGAGGG | 0.387
CACGAGGA | 0.444
CCACGTGC | 0.487
GTGTGGGA | 0.284
ACACGCGA | 0.405
CGGGCACG | 0.269
CCCGACCC | 0.311
AGCTCGTG | 0.258

Sample 3
Target: PABPC1L2, full length, GST fusion (mouse, UniProt A0ABA7IW68)
Technique: RNAcompete
Molecule type: RNA
Medium: in vitro
Concentration: 20 nM
Setting: 7-mer, probes averaged, single round
Baseline: mean of 7-mers
Direction: higher = stronger binding
Residues (chain): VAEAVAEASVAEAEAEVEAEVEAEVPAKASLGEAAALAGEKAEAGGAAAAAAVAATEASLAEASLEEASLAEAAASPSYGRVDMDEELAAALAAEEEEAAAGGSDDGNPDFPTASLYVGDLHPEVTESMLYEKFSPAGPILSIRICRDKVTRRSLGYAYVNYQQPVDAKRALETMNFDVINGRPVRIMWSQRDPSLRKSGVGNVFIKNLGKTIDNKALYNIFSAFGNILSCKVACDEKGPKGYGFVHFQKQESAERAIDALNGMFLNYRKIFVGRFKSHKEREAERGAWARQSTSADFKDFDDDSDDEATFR
Sequence | 7-mer Z-score
UUUGGCA | -0.0808
CGUAAUU | -0.278
UUAACAC | -0.139
GUGCGUG | 0.166
ACACAAA | 1.78
UCUCAUG | -0.298
AAAAUAC | 5.27
GUCCGGC | -0.266

Single results of other studies
Concentration: 1 µM
SMILES | tested on | test | how to read | endpoint | result
CC(=O)C1=C(C)N(c2cccc(C(F)(F)F)c2)C(=O)N[C@@H]1c1ccc(C#N)nc1 | patient-derived normal-adjacent epithelium organoids |  | baseline: DMSO control | viability | 98.9%
CNC(=O)Nc1ccc2c(c1)[C@@]1(CC2)OC(=O)N(CC(=O)N(Cc2ccc(F)cc2)[C@@H](C)C(F)(F)F)C1=O | CDC42BPB (Homo sapiens, UniProt Q9Y5S2) | cell-free assay, competition with immobilised ligand |  | remaining binding | 80%

A few entries again (sample 2):
Sequence | E-score
ACACGCGA | 0.405
CGGGCACG | 0.269
CCCGACCC | 0.311
AGCTCGTG | 0.258
